Results gathered from unrelated publications.
Compare with care: the assays were run in different laboratories. Numbers after ± are the reported error. Values after ≈ are worked out from the molar mass of the structure shown.

For `O=C(N/N=C/c1ccccc1)c1cc([N+](=O)[O-])cc([N+](=O)[O-])c1`, the MIC was 20 µM (≈ 6.27 µg/mL) (Aspergillus niger; microbial growth, broth dilution; 7 days).
With `Cc1cc(CCCOc2c(C)cc(-c3noc(C(F)(F)F)n3)cc2C)on1` the EC90 was 0.21 ± 0.05 µM (Enterovirus D68; RD, US/KY/14-18953; 72 h).
With `c1ccc(CN2CCCNCCN(Cc3ccccc3)CCCNCC2)cc1` the IC90 was > 25 µM (Leishmania donovani; parasite growth, resazurin; 72 h, amastigote).
`CN(CC(=O)N(Cc1ccc(C2CCCCC2)cc1)c1ccc(C(=O)O)cc1)S(=O)(=O)c1c(F)c(F)c(F)c(F)c1F` gave an IC90 of 2.7 ± 1 µM (dengue virus type 2 New Guinea C; viral yield; single-cycle yield reduction).
With `N#Cc1ccc(-c2ccc(-c3ccco3)o2)cc1F` the mutant frequency was 48% (Salmonella enterica; TA1535; 10 µM, 48 h, added: sodium azide after pre-exposure; relative to: sodium azide alone).
`C[C@@H]1N[C@H](CCCCCCCCCCC2=C[C@@H](CCCCCCCCCC[C@@H]3CC[C@@H](O)[C@H](C)N3)[C@@H]3CCCN3C2)CC[C@H]1O` gave an IC90 of 1.65 µg/mL (Leishmania donovani; parasite growth; THP-1; intracellular, amastigote).
`Polymyxin B` gave a survival rate of 78% (Escherichia coli K1; ICR mice; i.p., 10 mg/kg, 1 h before infection, up to 96 h).
For `N#Cc1ccc(-c2ccc(-c3ccco3)o2)c(F)c1`, the inhibition was 58% (Salmonella enterica; sodium azide mutagenicity; TA1535; 10 µM, 48 h, added: sodium azide 2 µg/plate co-exposure).
For `CCCCCCCCCCCC(=O)N/N=C/c1ccccc1`, the MIC was 61.7 µM (≈ 18.6 µg/mL) (Aspergillus niger; microbial growth, broth dilution; 7 days).
The MIC50 of `CC(C)C[C@H](NC(=O)[C@H](C)NC(=O)[C@H](CCCCN)NC(=O)[C@H](C)NC(=O)[C@H](CC(C)C)NC(=O)[C@H](CCCCN)NC(=O)[C@H](CC(C)C)NC(=O)[C@H](Cc1c[nH]c2ccccc12)NC(=O)[C@H](CC(C)C)NC(=O)[C@H](CC(C)C)NC(=O)[C@H](C)NC(=O)[C@@H]1CCCN1C(=O)[C@H](CC(C)C)NC(=O)[C@H](CCCCN)NC(=O)[C@H](CC(C)C)NC(=O)[C@H](C)NC(=O)[C@H](CCCCN)NC(=O)[C@H](C)NC(=O)[C@H](CC(C)C)NC(=O)[C@H](CCCCN)NC(=O)[C@@H](N)CCCCN)C(=O)N[C@@H](CCCCN)C(=O)N[C@@H](CCCCN)C(=O)N[C@@H](C)C(N)=O` is reported as 1.62 ± 0.17 µM (≈ 4.31 µg/mL) (Escherichia coli; broth microdilution; NCTC 9001; overnight, 37 °C).
The MIC of `CCCCCCCCCCCCCCCCCC(=O)N/N=C/c1ccccc1` is reported as 63.1 µM (≈ 24.4 µg/mL) (Aspergillus niger; microbial growth, broth dilution; 7 days).
`CN1CCN2CCN(CC1)CCN(Cc1ccccc1)CC2` gave an IC90 of > 20 µM (Leishmania donovani; parasite growth; THP-1 macrophages; intracellular amastigotes).
With `Nc1ncnc2c1ncn2CCOCP(=O)(O)O` the EC90 was 2.9 ± 0.2 µM (hepatitis B virus; viral replication; HepG2.2.15).
The cumulative mortality of `tannic acid` is reported as 39.2 ± 1% (viral haemorrhagic septicaemia virus; zebrafish; in feed, 200 µg/fish/day, feed 10% for 10 days).
`COc1cc2nc(N3CCCN(C)CC3)nc(NC3CCN(Cc4ccccc4)CC3)c2cc1OC` — result for antiviral activity: “inactive” (human respiratory syncytial virus; BEAS-2B, A2-L19F-renilla; concentration not given).
The inhibition of `C[C@H](Cn1cnc2c(N)ncnc21)OCP(=O)(O)O` is reported as 100% (human alphaherpesvirus 2; virus production, plaque reduction; human monocytes/macrophages; 500 µg/mL, 6 days).
The IC50 of `O=Cc1cn(Cc2ccccc2)c2ccc([N+](=O)[O-])cc12` is reported as > 10 µM (Leishmania major; parasite growth, resazurin; THP-1; 24 h, intracellular, amastigote).
`COc1cc(OC)cc(C(=O)N/N=C/c2ccccc2)c1` gave an MIC of < 25.1 µM (Aspergillus niger; tube dilution; 7 days, 25 °C).
`N#Cc1ccc(-c2ccc(-c3cccs3)o2)cc1F` gave a mutant frequency of 35% (Salmonella enterica; TA1535; 20 µM, 48 h, added: sodium azide co-exposure; relative to: sodium azide alone).
The MBC of `zinc borate` is reported as > 9% (Serratia marcescens; broth macrodilution; clinical isolate; 9%, added: boric acid).
For `CP(=O)(O)CCC(N)C(=O)O` (stereo not drawn), the herbicidal activity was 100% (Ipomoea hederacea; 500 g/ha, 13 days, IPOHE, post-emergence spray; relative to: untreated (0%), complete kill (100%)).
`CCc1nc(N)nc(N)c1-c1ccc(Cl)cc1` has an ED50 of 26.6 ± 0.7 µM (Trypanosoma brucei brucei; Alamar blue; Lister 427 bloodstream form; concentration not given, 10% fetal calf serum).
Under “lowest effective concentration”, `CO/C=C(/C(=O)OC)c1ccccc1Oc1cc(Oc2ccccc2C#N)ncn1` is recorded as < 1.8 µM (Zymoseptoria tritici; disease control, glasshouse foliar spray; Triticum aestivum; disease control 100%).
For `CN1CCCN2CCN(CCCN(Cc3ccccc3)CC2)CC1`, the IC90 was > 20 µM (Leishmania donovani; parasite growth, resazurin; 72 h, amastigote).
For `CN(C)CCCN1c2ccccc2Sc2ccc(Cl)cc21`, the pseudovirus entry was 0.76 ± 0.11 (coronavirus spike pseudovirus; luciferase reporter; ACE2-high cells; 20 µM, unit not given; relative to: untreated).
`N=C(N)c1ccc(-c2ccc(-c3cccs3)o2)cc1F` gave a mutant frequency of 33% (Salmonella enterica; TA1535; 20 µM, 48 h, added: sodium azide after pre-exposure; relative to: sodium azide alone).
For `C=CC1=C(C)/C(=C/c2[nH]c(Cc3[nH]c(/C=C4\NC(=O)C(C)=C4C=C)c(C)c3CCC(=O)O)c(CCC(=O)O)c2C)NC1=O`, “lowest effective concentration” read 200 µM (hepatitis C virus; viral replication, RT-PCR; Huh5-15 NS replicon; 48 h).
The IC50 of `O=Cc1cn(Cc2ccc(F)cc2)c2ccc([N+](=O)[O-])cc12` is reported as > 84 µM (Trypanosoma equiperdum; trypomastigotes, IVM-t1).
`CCCCCCCCCCCCCCCC(=O)N/N=C/c1ccccc1Cl` has an MIC of 53.7 µM (≈ 21.1 µg/mL) (Aspergillus niger; microbial growth, broth dilution; 7 days).
`N=C(N)c1ccc(-c2ccc(-c3ccco3)o2)cc1F` has a mutant frequency of 92% (Salmonella enterica; TA1535; 10 µM, 48 h, added: sodium azide after pre-exposure; relative to: sodium azide alone).
`LSTFFRLFNRSFTQGRRRRSVQWCA`: biofilm growth “decreased” (Streptococcus mutans; OD600; peptide, UA159, 4 h single-species biofilm; 128 µg/ml, 5 min exposure, OD600 read over 5 h).
For `CN(C)c1ccc(/C=C/C=NN2C(S)=NCN2/C=C/c2ccccc2)cc1`, the LC50 was 170 µg/mL (≈ 450 µM) (Aedes aegypti; third instar larvae).
With `N#Cc1ccc(-c2ccc(-c3cccs3)s2)cc1F` the mutant frequency was 18% (Salmonella enterica; TA1535; 20 µM, 48 h, added: sodium azide co-exposure; relative to: sodium azide alone).
For `C[C@H](Cn1cnc2c(N)ncnc21)OCP(=O)(O)O`, the EC90 was 7.7 ± 0.6 µM (hepatitis B virus; viral replication; HepG2.2.15).
`N#Cc1ccc(-c2ccc(-c3cccs3)o2)c(F)c1` gave a mutant frequency of 31% (Salmonella enterica; TA1535; 10 µM, 48 h, added: sodium azide co-exposure; relative to: sodium azide alone).
`Oc1ccc(C2=NN3C(=NCN3/C=C/c3ccccc3)S2)cc1O` has an LC50 of 120 µg/mL (≈ 355 µM) (Aedes aegypti; third instar larvae).

For quick reference, copied from above:
The cumulative mortality of `tannic acid` is reported as 39.2 ± 1% (viral haemorrhagic septicaemia virus; zebrafish; in feed, 200 µg/fish/day, feed 10% for 10 days).
`COc1cc2nc(N3CCCN(C)CC3)nc(NC3CCN(Cc4ccccc4)CC3)c2cc1OC` — result for antiviral activity: “inactive” (human respiratory syncytial virus; BEAS-2B, A2-L19F-renilla; concentration not given).
The inhibition of `C[C@H](Cn1cnc2c(N)ncnc21)OCP(=O)(O)O` is reported as 100% (human alphaherpesvirus 2; virus production, plaque reduction; human monocytes/macrophages; 500 µg/mL, 6 days).
The IC50 of `O=Cc1cn(Cc2ccccc2)c2ccc([N+](=O)[O-])cc12` is reported as > 10 µM (Leishmania major; parasite growth, resazurin; THP-1; 24 h, intracellular, amastigote).
